# Results gathered from unrelated publications.
# Each numbered part is a random draw from the data of one study; scales do not carry over between parts. Values joined by “and” are separate records of one study, mostly repeats; a detail may differ.
# Chain of UniProt Q9Y2K2 (whole entry, looked up): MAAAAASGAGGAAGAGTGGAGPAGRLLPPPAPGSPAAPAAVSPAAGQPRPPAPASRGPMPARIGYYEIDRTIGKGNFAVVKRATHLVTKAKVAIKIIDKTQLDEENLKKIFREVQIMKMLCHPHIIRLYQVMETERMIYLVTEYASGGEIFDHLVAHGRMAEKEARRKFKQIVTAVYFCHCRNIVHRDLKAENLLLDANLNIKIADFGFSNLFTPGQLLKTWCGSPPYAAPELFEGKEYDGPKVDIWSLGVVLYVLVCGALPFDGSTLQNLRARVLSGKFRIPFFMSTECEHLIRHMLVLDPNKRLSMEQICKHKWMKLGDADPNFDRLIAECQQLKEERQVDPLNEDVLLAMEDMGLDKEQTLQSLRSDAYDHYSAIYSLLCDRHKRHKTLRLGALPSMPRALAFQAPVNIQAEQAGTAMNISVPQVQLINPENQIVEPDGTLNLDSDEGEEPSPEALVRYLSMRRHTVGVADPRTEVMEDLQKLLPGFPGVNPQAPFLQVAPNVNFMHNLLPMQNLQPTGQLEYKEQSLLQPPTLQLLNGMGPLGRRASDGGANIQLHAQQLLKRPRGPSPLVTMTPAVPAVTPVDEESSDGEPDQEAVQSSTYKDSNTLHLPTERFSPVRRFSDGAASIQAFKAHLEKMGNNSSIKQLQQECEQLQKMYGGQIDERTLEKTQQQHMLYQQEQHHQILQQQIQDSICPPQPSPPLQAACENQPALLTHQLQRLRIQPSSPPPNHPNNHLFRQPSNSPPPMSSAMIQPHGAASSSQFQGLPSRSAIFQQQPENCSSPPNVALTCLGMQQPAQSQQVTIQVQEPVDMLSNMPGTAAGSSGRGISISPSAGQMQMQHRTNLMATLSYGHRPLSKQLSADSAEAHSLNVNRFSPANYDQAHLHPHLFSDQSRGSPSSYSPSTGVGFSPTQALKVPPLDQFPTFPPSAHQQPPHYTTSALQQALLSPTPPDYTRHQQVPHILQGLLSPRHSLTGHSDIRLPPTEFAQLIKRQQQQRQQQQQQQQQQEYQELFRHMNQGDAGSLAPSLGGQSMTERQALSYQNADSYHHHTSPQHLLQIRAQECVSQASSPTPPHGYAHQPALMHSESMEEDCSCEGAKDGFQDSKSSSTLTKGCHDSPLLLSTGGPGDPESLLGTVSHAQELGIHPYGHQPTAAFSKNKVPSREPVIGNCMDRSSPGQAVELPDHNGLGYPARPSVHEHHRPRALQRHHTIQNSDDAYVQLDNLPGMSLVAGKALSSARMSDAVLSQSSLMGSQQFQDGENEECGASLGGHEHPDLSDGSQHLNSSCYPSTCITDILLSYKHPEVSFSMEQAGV
# Chain of UniProt Q15418 (whole entry, looked up): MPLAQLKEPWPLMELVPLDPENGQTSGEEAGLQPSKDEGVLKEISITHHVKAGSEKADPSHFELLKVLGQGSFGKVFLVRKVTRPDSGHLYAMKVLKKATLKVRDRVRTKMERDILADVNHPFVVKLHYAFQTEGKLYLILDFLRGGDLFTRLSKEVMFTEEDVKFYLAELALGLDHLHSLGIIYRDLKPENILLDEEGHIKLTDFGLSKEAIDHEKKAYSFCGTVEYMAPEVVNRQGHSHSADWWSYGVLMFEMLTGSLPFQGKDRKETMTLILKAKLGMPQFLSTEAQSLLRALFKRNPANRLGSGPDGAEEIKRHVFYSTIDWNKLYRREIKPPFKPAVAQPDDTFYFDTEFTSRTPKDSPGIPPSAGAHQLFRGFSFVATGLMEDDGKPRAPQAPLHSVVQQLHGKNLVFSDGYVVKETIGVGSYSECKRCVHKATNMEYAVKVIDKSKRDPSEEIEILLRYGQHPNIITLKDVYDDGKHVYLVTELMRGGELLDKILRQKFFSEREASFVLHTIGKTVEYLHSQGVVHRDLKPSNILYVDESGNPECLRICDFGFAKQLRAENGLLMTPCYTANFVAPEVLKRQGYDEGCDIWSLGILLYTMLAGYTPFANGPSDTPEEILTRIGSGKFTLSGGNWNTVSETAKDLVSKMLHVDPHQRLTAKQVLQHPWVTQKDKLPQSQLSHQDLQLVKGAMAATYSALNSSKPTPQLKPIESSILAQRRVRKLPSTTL
# Chain of UniProt Q02779 (whole entry, looked up): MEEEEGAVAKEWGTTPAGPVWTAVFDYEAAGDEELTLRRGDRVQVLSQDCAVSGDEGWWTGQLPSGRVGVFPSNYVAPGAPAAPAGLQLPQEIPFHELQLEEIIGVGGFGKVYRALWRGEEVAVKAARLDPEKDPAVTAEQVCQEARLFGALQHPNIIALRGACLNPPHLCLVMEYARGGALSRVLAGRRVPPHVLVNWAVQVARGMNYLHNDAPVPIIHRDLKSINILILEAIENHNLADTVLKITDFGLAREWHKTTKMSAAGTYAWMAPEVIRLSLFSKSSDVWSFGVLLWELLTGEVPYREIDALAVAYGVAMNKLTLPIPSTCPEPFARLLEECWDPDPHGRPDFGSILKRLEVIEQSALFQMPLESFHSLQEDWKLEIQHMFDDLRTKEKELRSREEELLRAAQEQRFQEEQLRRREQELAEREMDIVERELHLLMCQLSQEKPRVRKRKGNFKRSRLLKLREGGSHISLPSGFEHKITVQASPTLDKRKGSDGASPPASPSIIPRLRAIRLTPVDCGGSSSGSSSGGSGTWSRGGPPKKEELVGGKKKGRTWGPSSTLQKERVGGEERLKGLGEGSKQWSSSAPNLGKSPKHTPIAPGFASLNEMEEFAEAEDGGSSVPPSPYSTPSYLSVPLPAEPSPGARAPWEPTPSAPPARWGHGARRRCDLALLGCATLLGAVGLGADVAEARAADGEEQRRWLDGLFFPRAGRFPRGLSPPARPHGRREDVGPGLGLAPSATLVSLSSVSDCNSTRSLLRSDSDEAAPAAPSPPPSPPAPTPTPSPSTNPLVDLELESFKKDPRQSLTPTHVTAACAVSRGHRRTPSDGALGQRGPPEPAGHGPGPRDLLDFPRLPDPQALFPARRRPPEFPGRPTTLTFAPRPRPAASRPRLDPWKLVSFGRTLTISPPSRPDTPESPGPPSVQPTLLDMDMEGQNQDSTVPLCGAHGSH
# Chain of UniProt P51679 (whole entry, looked up): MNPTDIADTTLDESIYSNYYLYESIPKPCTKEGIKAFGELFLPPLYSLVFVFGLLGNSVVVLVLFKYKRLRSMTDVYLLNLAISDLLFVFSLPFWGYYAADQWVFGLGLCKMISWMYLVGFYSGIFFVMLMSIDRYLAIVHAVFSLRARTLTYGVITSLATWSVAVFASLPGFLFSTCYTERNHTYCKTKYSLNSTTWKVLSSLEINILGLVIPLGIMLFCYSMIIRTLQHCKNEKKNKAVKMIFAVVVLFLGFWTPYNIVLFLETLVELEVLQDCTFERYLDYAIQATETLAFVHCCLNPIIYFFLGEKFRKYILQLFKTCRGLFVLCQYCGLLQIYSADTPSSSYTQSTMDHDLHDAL
# Chain of UniProt Q8N4C8 (whole entry, looked up): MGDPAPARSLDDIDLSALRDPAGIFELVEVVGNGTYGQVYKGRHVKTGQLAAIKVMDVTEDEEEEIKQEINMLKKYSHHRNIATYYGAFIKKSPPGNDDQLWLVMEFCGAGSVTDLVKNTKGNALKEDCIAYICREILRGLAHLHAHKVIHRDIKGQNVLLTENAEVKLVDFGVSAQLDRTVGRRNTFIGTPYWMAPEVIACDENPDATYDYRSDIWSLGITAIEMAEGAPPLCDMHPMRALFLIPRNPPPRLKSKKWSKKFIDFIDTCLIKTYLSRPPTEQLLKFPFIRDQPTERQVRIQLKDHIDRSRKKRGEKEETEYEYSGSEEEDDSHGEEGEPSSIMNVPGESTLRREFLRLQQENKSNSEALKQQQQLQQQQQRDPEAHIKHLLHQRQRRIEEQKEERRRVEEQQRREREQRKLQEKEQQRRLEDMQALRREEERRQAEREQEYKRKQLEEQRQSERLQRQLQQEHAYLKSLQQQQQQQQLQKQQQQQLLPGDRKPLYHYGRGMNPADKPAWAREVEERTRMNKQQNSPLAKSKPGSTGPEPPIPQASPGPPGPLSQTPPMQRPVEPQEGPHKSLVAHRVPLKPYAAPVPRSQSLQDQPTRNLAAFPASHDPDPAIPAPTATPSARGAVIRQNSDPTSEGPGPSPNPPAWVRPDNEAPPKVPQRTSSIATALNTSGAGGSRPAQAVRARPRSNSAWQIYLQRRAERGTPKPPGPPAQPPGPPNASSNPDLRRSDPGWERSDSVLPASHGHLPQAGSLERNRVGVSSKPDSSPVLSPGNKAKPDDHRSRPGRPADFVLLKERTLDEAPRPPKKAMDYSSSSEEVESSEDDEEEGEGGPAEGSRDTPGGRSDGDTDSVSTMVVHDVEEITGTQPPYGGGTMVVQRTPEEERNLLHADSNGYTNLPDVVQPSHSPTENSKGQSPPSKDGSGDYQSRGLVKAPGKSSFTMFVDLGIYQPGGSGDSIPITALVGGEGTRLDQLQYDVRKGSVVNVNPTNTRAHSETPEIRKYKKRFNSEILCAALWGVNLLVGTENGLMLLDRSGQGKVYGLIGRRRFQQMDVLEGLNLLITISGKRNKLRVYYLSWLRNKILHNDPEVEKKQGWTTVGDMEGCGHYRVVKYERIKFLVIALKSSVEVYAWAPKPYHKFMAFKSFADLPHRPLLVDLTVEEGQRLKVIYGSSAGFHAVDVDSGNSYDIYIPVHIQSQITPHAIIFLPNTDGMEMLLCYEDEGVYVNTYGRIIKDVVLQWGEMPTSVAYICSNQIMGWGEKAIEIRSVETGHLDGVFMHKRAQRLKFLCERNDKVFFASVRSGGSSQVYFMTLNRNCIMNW
# Chain of UniProt Q16816 (whole entry, looked up): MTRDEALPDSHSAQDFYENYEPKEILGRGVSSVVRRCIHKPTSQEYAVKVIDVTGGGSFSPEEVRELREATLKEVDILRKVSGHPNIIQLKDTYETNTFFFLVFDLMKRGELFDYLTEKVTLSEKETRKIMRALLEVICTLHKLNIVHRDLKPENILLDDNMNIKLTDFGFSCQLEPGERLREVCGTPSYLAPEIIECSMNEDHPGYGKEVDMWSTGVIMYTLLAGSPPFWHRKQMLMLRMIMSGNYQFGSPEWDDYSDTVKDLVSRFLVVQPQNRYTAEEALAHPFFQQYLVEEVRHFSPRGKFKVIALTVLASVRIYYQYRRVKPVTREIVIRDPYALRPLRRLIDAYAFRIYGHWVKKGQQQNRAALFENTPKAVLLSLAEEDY

# Sample 1 — effect on: cell-free assay; method: competition with immobilised ligand; tested at: 1 µM
# SMILES: O=C(Nc1cccnn1)N1CCC(=Cc2cccc(Oc3ccc(C(F)(F)F)cn3)c2)CC1
target,remaining binding [%]
"ERBB2 (Homo sapiens, UniProt P04626)",72
"PIK3CA (Homo sapiens, UniProt P42336)",100
"TGFBR2 (Homo sapiens, UniProt P37173)",76
"PAK3 (Homo sapiens, UniProt O75914)",73
"MINK1 (Homo sapiens, UniProt Q8N4C8)",100
"MAPK9 (Homo sapiens, UniProt P45984)",100
"SIK3 (Homo sapiens, UniProt Q9Y2K2)",83
"TBK1 (Homo sapiens, UniProt Q9UHD2)",100
"MAP3K13 (Homo sapiens, UniProt O43283)",100
"EPHB4 (Homo sapiens, UniProt P54760)",69
"LCK (Homo sapiens, UniProt P06239)",80
"MAP4K4 (Homo sapiens, UniProt O95819)",100
"Ribosomal protein S6 kinase alpha-5, N-terminal kinase domain (RPS6KA5, Homo sapiens, UniProt O75582)",71
"Myosin-IIIb (MYO3B, Homo sapiens, UniProt Q8WXR4)",100
"NUAK2 (Homo sapiens, UniProt Q9H093)",88
"PHKG1 (Homo sapiens, UniProt Q16816)",100
"ACVR1 (Homo sapiens, UniProt Q04771)",92
"Ribosomal protein S6 kinase alpha-1, C-terminal kinase domain (RPS6KA1, Homo sapiens, UniProt Q15418)",100
"MST1R (Homo sapiens, UniProt Q04912)",92
"IRAK1 (Homo sapiens, UniProt P51617)",100
"STK25 (Homo sapiens, UniProt O00506)",100
"MAP3K10 (Homo sapiens, UniProt Q02779)",100
"Tyrosine-protein kinase ABL1, phosphorylated (ABL1, Homo sapiens, UniProt P00519, F317L)",94
"ULK3 (Homo sapiens, UniProt Q6PHR2)",100
"Cyclin-dependent kinase 4, with cyclin D1 (CDK4, Homo sapiens, UniProt P11802)",100

# Sample 2 — SMILES: CC(C)CN(C)c1nc(N)c(C(=O)N=C(N)N)nc1Cl; effect on: β-arrestin recruitment; mode: agonist; method: PRESTO-Tango; tested at: 10 µM; reference: untreated
target,fold over basal
"HRH1 (Homo sapiens, UniProt P35367)",1.25 fold
"GPR18 (Homo sapiens, UniProt Q14330)",0.79
"OXGR1 (Homo sapiens, UniProt Q96P68)",1.26
"C3AR1 (Homo sapiens, UniProt Q16581)",0.83
"MRGPRX1 (Homo sapiens, UniProt Q96LB2)",1.11
"GHSR (Homo sapiens, UniProt Q92847)",1.33 fold
"Proto-oncogene Mas (Homo sapiens, UniProt P04201)",1.24
"ADORA2A (Homo sapiens, UniProt P29274)",0.71
"CCR4 (Homo sapiens, UniProt P51679)",1.35
"P2Y purinoceptor 2 (P2RY2, Homo sapiens, UniProt P41231)",0.65
"HTR2C (Homo sapiens, UniProt P28335, I156V/I160V)",0.45

# Sample 3 — mode: inhibitor; tested at: 10 µM; reference: control
# Target: Diamine acetyltransferase 1 (Homo sapiens, UniProt P21673)
# Target sequence (P21673 1-171): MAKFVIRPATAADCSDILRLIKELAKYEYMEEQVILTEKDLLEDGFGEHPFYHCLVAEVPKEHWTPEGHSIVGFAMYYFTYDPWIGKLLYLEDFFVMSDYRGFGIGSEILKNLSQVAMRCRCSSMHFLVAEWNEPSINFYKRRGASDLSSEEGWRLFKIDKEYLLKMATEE
SMILES,remaining activity [%]
CC1=CCC(=O)O1,97.5
CCCCCCCCCCCCCCCCCCCCCCCCCCO,77.5
O=C(O)CC(O)(CC(=O)O)C(=O)O,87.5
CC1=CCC(O)(C(C)C)CC1 (centres unmarked),100
CCCCCCCCCCCCCCCC(=O)OCC,121
O=c1c(O)c(-c2ccc(O)cc2)oc2cc(O[C@@H]3O[C@H](CO)[C@@H](O)[C@H](O)[C@H]3O)cc(O)c12,92.4
OC[C@@]1(O)OC[C@@H](O)[C@@H](O)[C@@H]1O,104
O=Cc1ccc(CO)o1,100
COC(=O)C1=CO[C@@H](O[C@@H]2O[C@H](CO)[C@@H](O)[C@H](O)[C@H]2O)[C@@H]2[C@@H](C)[C@@H](O)C[C@H]12,105
CC(C)CCC[C@@H](C)[C@H]1CC[C@H]2[C@@H]3CC[C@H]4C[C@@H](O)CC[C@]4(C)[C@H]3CC[C@]12C,98.2
COC(=O)C1=CO[C@@H](O[C@@H]2O[C@H](CO)[C@@H](O)[C@H](O)[C@H]2O)[C@H]2[C@@H]1C(=O)C[C@@H]2C,85.5
CC(=O)O[C@H]1C[C@H]2CC[C@]1(C)C2(C)C,83.4
COC(=O)c1ccc(O)c(OC)c1,96.5
O=c1c(O[C@@H]2O[C@H](CO)[C@@H](O)[C@H](O)[C@H]2O)c(-c2ccc(O)c(O)c2)oc2cc(O)cc(O)c12,94.7

# Sample 4 — cell line: mouse MPNST tumor cells; method: high-content immunofluorescence imaging; item: nuclear SOX9; tested at: 10 µM; time: 12 h; setting: mean of 2 replicates; reference: DMSO control; direction: higher = more nuclear SOX9
SMILES,nuclear SOX9 intensity
CC(=O)NCCNc1cc(Cl)nn2c(-c3cccc(S(=O)(=O)N(C)C)c3)c(C)nc12,204 % of DMSO
Cc1ccc(S(=O)(=O)NC(=O)NN2CCCCCC2)cc1,119 % of DMSO
N=C(N)NC(=O)c1cnn(-c2cccc3ncccc23)c1C1CC1,111 % of DMSO
Cc1c(Nc2ncccc2C(=O)O)cccc1C(F)(F)F,101 % of DMSO
O=S(=O)(NC1CCCCC1)c1ccc2c(c1)C(=NO)c1cc(S(=O)(=O)NC3CCCCC3)ccc1-2,89.5 % of DMSO
Cc1cc(N2CCCCC2)nc2ccccc12,89.9 % of DMSO
COC(=O)[C@H]1[C@H]2C[C@H]3c4[nH]c5ccccc5c4CCN3C[C@H]2CC[C@@H]1O,95.3 % of DMSO
NS(=O)(=O)c1ccc(NC(=O)Nc2ccc(F)cc2)cc1,105 % of DMSO
O=C(O)c1ccc(N2N=C(Cc3ccccc3)C(=Cc3ccc(-c4ccccc4F)o3)C2=O)cc1,90.5 % of DMSO
CCC1(C)CC(=O)NC1=O (centres unmarked),101 % of DMSO
COCCN(C(=O)c1cc(OC)c(OC)c(OC)c1)c1nc(-c2ccccc2)cs1,104 % of DMSO
CC1(C)N=C(N)N=C(N)N1c1ccc(Cl)cc1,120 % of DMSO
Nc1ccc(S(=O)(=O)NC(=O)c2ccccc2)cc1,89.8 % of DMSO
COc1c(C)cc(NC(=O)c2nn(Cc3ccc(F)cc3)c3c2CN(C(=O)c2ccc[nH]2)C[C@]3(C)C(N)=O)cc1C,107 % of DMSO
NC(=O)N1c2ccccc2C=Cc2ccccc21,89.6 % of DMSO and 99.9 % of DMSO
COc1cc(OC)cc(-c2noc(N3CCN(C)C4(CCN(c5ccnc(C)c5)CC4)C3)n2)c1,193 % of DMSO and 232 % of DMSO
CSc1nc(-c2ccnc(NC(C)c3ccccc3)c2)c(-c2ccc(F)cc2)[nH]1 (centres unmarked),152 % of DMSO
CC[N+](CC)(CC(=O)Nc1c(C)cccc1C)Cc1ccccc1,92.8 % of DMSO

# A few entries again (sample 1):
target,remaining binding [%]
"LCK (Homo sapiens, UniProt P06239)",80
"MINK1 (Homo sapiens, UniProt Q8N4C8)",100
"ERBB2 (Homo sapiens, UniProt P04626)",72
"MAP4K4 (Homo sapiens, UniProt O95819)",100
"MST1R (Homo sapiens, UniProt Q04912)",92
"PIK3CA (Homo sapiens, UniProt P42336)",100
